Measured values from different studies.
Each line is one published result; not all experiments were run side by side. “And” joins repeats or separate records; there may be more than shown. ± marks the error that the study gave.

CC(C)n1ncc2c(C(=O)NCC3(C)CNC3)cc(C3CC3)nc21
viability (Vero C1008; neutral red uptake; DMEM with 2% FBS; 0.11 µM; reference: positive control): 99.8%

O=C(NC[C@H](O)CO)c1ccncc1Nc1ccc(I)cc1F
viability (A-172; WST-8; 1 µM, 25 h): 102%

CN(C)c1ccc(C2CCCN2Cc2ccc(-c3ccccc3[N+](=O)[O-])o2)cc1 (centres unmarked)
viability (HEK-Blue IL-33; MTS; up to 333 µM, 20 h): no effect

O=c1[nH]cc(F)c(=O)[nH]1
viability (Huh-7; CCK-8; 50 µM, 48 (unit not given); reference: untreated control): 45.6 ± 0.75%

Cc1ccc(CNC(=O)Cn2cc(CSc3nc4ccccc4[nH]3)nn2)cc1
viability (HEK293; MTT; 3.91 ppm): 80.1%

Cc1ccccc1-c1ccc([C@H]2[C@@H]3CN(C(=O)C4CCOCC4)C[C@H]2N3)cc1
EC50 (IDE (Homo sapiens, UniProt P14735); enzyme activity, inhibitor, fluorogenic kinetic; added: Mca-RPPGFSAFK(Dnp)-OH substrate): 2200 nM

O=[N+]([O-])c1ccccc1-c1ccc(CN2CCCC2c2ccc(N3CCCC3)cc2)o1 (centres unmarked)
viability (HEK-Blue IL-33; MTS; up to 333 µM, 20 h): no effect

COc1cc2ncnc(Nc3ccc(Oc4ccccc4)c(C)c3C)c2cc1OC.Cl
viability (NCI-H2087 (BRAF L597V); cell growth, resazurin; 3 µM, 72 h, added: 0 nM trametinib; reference: DMSO): 0.95 fraction of control

CCOC(=O)CCNc1cc(N2CCc3ccccc3CC2)nc(-c2ccccn2)n1
viability (HBL-1; 0.1 µM, 120 h): 120%

O=C(C[C@@H](C(F)F)n1ccc(F)n1)N1CCC(O)(Cn2cnc3c(cnn3-c3ccc(F)cc3)c2=O)CC1
viability (LNCaP; CCK-8; 123.5 nM, 5 days): 15.8% and 19.6%

O=C(NOCC(O)CO)c1cc(Br)c(F)c(F)c1Nc1ccc(I)cc1F (centres unmarked)
viability (A-172; WST-8; 1 µM, TDO inhibitor study): 104%

O[C@H]1[C@H](OCc2cn(Cc3ccc(F)cc3)nn2)O[C@H]2[C@@H]1OC[C@H]2O
viability (Huh-7; cytotoxicity, CellTiter-Glo; up to 30 µM, 72 h): not toxic

Cc1ccc(C(=O)Nc2ccc(S(=O)(=O)O)c3cc(S(=O)(=O)O)cc(S(=O)(=O)O)c23)cc1NC(=O)c1cccc(NC(=O)Nc2cccc(C(=O)Nc3cc(C(=O)Nc4ccc(S(=O)(=O)O)c5cc(S(=O)(=O)O)cc(S(=O)(=O)O)c45)ccc3C)c2)c1
viability (HBL-1; 0.1 µM, 120 h): 112%

CC(=O)Nc1cccc(-n2c(=O)n(C3CC3)c(=O)c3c(Nc4ccc(I)cc4F)n(C)c(=O)c(C)c32)c1
viability (COLO 205; resazurin; 100.00 nM, 72 h, unit not given; reference: DMSO): 0.0958 and 0.0722

A few entries again:
O=C(NOCC(O)CO)c1cc(Br)c(F)c(F)c1Nc1ccc(I)cc1F (centres unmarked)
viability (A-172; WST-8; 1 µM, TDO inhibitor study): 104%
